Measured values collected from several papers.
Parts stem from different laboratories: compare values within a part only.

Sample 1 — technique: RNA Bind-n-Seq; molecule type: RNA; sample: in vitro; tested at: 365 nM; relative to: no-protein control; reading: higher = stronger binding; measurement: RBNS enrichment (R)
Target: RNA binding protein fox-1 homolog 2, RRM domain, GST-SBP tag (RBFOX2, Homo sapiens, UniProt O43251-10, residues 100-194)
Setting: natural RNA segment, single round, ends assumed
Shared flanks, not repeated: GGGAGUUCUACAGUCCGACGAUC … UGGAAUUCUCGGGUGCCAA
Residues (chain): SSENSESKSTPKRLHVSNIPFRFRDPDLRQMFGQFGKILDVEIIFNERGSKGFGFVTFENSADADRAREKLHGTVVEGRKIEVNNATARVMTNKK
UGGGGUUGGGGGUGGAGGUCUAGAGGUGAGCUCAGAAACCUACUGUUAACCAACACCCCCAAGUGACUGACACAGGUGGUCUAAAAAUUACUUUUCUAGAAACACCAUUC: 0.399
CCCCCAGGUGUUGCCAUUUCUCUGCUUACCCUUCACCUUUGGUGCAGAGGUUUCUUGAAUAUCUGCCCCAGUAGUCAGAAGCAGGUUCUUGAUGUCAUGUACUUCCUGUG: 0.291
GACCAUUUGUGUACAAGUGUUUGUGCAGACAUAUGUUUAACUUUUUAGGAAAUUGCCAGACUGUUUUCCAAAGAAGCUGCACCAUUUUACAUUUGCACCAGCAAUGUAGG: 0.43
GACCGUCGUAGGCUUCCAUUUUUCCCAUCACCCACUGUAAAGGCUCAGAGUUGAACUACCACUGUGGCUGCUUAUUGCUUCCUCCUAAGUUGCUACUGUUCAUAGAACUG: 0.409
UCACUGUUUCUGCCAGUCACAUGCUCUUCCUGUAUGAGUGACACUGCCGUGCUUUCCUCCAGUUAUCCUUUGCAUUAACUACGUGGGAACUCUUGCAGGCUAUAUAUGUG: 0.493
UCUUCUUGUUUUAAGUUUCUUGGACUUCUGACAAACUUCCCUGGAGAAGUGUUCAUUUUUGUUUUCUUCAUGUAGCUUGUAGAUCAUAAUAAGUAUUUGCUCUUAAAAUU: 0.948
GAAGGCUGAACUUACAUAGAGGUUUUACUCAGCAAUACUUAGAUGUCUAACAGUUUAAUUGCUCCAGAGCUUUAUAGGUAUUUAAAGACUGAUUAGUAAAUAAAAUUGCC: 0.779
CCUAUAAGGGACAAGAGAAGGCCUGCCCAGCAUAGCACAAACAAGGAAAUAAAUAGGUGUUGGCAGGGCCAUGCUUGGGGCACCGCUCCCUGCUUCCUUCUUUCUAGUUU: 1.08

Sample 2 — technique: RNA Bind-n-Seq; molecule type: RNA; sample: in vitro; tested at: not given; relative to: input RNA pool; reading: higher = stronger binding; measurement: bound/input enrichment
Target: RING finger protein unkempt homolog, zinc fingers 1-6, GST-SBP tag (UNK, Homo sapiens, UniProt Q9C0B0, residues 30-357)
Setting: RNA with constant flanks, human-mouse chimeric sites, ends assumed
Shared flanks, not repeated: GGGAGUUCUACAGUCCGACGAUC … CAACAGAGGAUUGAGCAUCA
Construct (chain): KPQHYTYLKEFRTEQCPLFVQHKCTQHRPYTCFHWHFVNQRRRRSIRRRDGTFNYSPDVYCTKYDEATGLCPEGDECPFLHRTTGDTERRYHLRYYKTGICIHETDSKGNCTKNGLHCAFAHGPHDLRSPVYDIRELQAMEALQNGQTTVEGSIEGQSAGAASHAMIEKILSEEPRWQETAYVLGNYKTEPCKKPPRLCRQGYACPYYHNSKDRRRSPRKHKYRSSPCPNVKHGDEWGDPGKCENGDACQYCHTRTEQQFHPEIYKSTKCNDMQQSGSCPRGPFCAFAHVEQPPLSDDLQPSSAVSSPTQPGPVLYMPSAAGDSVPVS
GGAAGUACAAUGAUGGAAAUAGAUGGCGACAAAGGCAAGCAGGGCGGGCCCACCUACUACAUAGAUACCAAUGCCCUCCGCGUGCCCAGGGAGAACAUGGAGGCCAUCUCACCACUCAAG: 0.283 ratio
AAAGAACCUCUCUCUGAUGAAGAUGAGGAAGACAAUGAUGAUGUUGAACCCAUUUCUGAAUUUCGAUUUGUGCCCAGUGAUAAAUCAGCGUUGGAGGCGAUGUUCACAGCAAUGUGUGAG: 0.287 ratio
UUGCUACUAACUCCAUGGGUUAAAUUCCUGUGGGAAUCAUACAGGCAGUGUUUGGACCUUCUUCGAAACAAUUCUAGAGUAGAGCGCCUUUACCAUGAUAUCGCCCAACAAGCUUUCAAA: 0.191 ratio
AUGGAACAUUUCGAUGCGUCACUCAGUACCUAUUUCAAGGCCUUCCUGGGCCCCCGAGAUACAAGAGUCAAAGGAUGGUUUCUUCUGGACAAUUACAUACCCACAUUUGUCUGUUCUGUU: 0.0977 ratio
AGUGUGCAGGAAUUCAUGACCUUCACGAGUCAACUGAUUGUGGAGCGCUCGGGGAAAGGCAGCAGAGCUUCUGUCAAAGAACAAGAGUAUCUUUGCCAUGUCUACGUCCGGAGCGACAGU: 0.0943 ratio
AACUUCGUGCAUCGGUUUCCUUUUGUAGCUGUUUCAAUUGGCUUCCUUGUAAAUAAAGAGAUGGAGUUUGGAAUUGUGUACAGCUGUGUGGAAGAUAAGAUGUACACCGGCAGGAAAGGG: 0.368 ratio
CCUCCCCCGGGCCACCCACCCCUCCCGGCUCCCCGCCGAGAUCCAGGUUUCUUCUGUUUUCAUAGCAAAUAAGAAAAAUGUUCUACGCACAUUUUGUCCUCAGUAAACGAGGGCCUCUGG: 0.642 ratio
UGGCGCCUGCGCUCCCCGUUUUUAAAUUUAAGUGUAUUUUUAUAAGAUACAUGUAUUUACAAUUGAGCUUUUGUUACAUAAUGCUGAAAUGCUACUGCAAUAUUAUGAAAAUGUUUCAAU: 0.286 ratio

Sample 3 — technique: universal PBM; molecule type: double-stranded DNA, one strand shown; sample: in vitro; tested at: not given; reading: higher = stronger binding; measurement: E-score
Target: Sal-like protein 4, full length isoform B (SALL4, Homo sapiens, UniProt Q9UJQ4-2, residues 1-616)
Setting: 8-mer, flanks averaged, mean of replicates
Target sequence (chain): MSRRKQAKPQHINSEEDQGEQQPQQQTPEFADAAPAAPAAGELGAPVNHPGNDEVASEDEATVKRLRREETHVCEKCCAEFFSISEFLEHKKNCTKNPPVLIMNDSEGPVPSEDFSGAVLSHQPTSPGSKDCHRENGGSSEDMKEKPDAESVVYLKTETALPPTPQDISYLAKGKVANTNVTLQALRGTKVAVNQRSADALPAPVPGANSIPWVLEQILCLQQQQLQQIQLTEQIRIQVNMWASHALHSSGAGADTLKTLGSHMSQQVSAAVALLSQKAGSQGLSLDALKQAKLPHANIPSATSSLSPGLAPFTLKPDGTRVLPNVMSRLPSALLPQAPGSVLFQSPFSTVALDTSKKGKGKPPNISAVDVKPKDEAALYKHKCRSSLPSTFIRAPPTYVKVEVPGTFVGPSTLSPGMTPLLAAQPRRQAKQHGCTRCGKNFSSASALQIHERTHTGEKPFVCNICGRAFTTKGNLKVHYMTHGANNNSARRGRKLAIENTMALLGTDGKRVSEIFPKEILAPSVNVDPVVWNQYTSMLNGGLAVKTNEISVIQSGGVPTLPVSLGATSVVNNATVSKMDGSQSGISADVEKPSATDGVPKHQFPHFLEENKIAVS
CTTTGTAC: 0.0911
ATGCAGGA: -0.0384
CACGGGGC: -0.338
AGATAGTG: 0.0357
GACCGGAC: -0.34
CTGGAGAA: -0.218
CGTCCTCC: -0.147
CGCGTAGA: -0.152
CGGACCAA: -0.166
ACTACCAT: 0.128
ACTCTTCT: -0.0177
CGTTATGC: 0.189
ATGGTATG: 0.13
CAAATGCG: -0.00679
CAAGGCTA: 0.0644
CAGCTCCG: -0.233
CAAGCGGA: -0.26
CTGCATGC: -0.101
GACAGGTA: 0.078
ACTTCACG: -0.082
CCTGATGC: -0.0337
AATTTGGG: 0.215
CAAAGTAA: 0.164
CCCAAGCA: 0.0283
ACGGTGGA: -0.276

Sample 4 — technique: protein binding microarray; molecule type: double-stranded DNA, one strand shown; sample: in vitro; tested at: not given; relative to: not given; reading: higher = stronger binding; measurement: E-score
Target: Histone acetyltransferase KAT6A, winged helix 2, GST fusion (KAT6A, Homo sapiens, UniProt Q92794, residues 85-181)
Setting: 8-mer, flanks averaged, mean of 2 arrays, mostly near background
Residues (chain): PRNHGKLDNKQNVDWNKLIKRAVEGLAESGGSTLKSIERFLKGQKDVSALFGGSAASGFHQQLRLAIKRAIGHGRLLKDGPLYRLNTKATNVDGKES
ACCGTCTA: -0.138
CAGTGTCA: -0.0886
AATCATAG: 0.0348
ACCTTCCG: 0.151
CAGGCGGC: 0.136
CAAGCACA: 0.0957
CATGATTA: 0.024
CCGGTCTC: 0.113
ATAGTGGC: -0.0553
CATCGCAC: 0.127
AAAGAATA: 0.0494
CAGGTTTC: 0.117
CCCGTCAC: 0.0589
CCATCCCA: 0.0251
CAATGGTC: -0.0993
GACGTGGA: -0.134
GCGTATGA: 0.0188
AGTTCACG: -0.00995
AGTCAAGC: -0.0709
ACTAGTCG: -0.226
CTTAAGGC: -0.0398
ACGTGCGG: -0.137
AAGGAAAC: 0.00059
AACTCCTA: -0.0205
AAGGGTCA: -0.0965

For quick reference, copied from above (sample 3):
GACCGGAC: -0.34
CGCGTAGA: -0.152
CAAGGCTA: 0.0644
CAAGCGGA: -0.26
CACGGGGC: -0.338
GACAGGTA: 0.078
ACTTCACG: -0.082
AATTTGGG: 0.215
CTTTGTAC: 0.0911
ACTCTTCT: -0.0177
